Measurements from different studies.
Compare with care: the assays were run in different laboratories. ± marks the error that the study gave.
DCLRE1A: DNA cross-link repair 1A protein (DCLRE1A, Homo sapiens, UniProt Q6PJP8)

Structure (SMILES) | target | assay | setting | how to read | remaining activity
CC#CC(=O)N1CCC[C@H]1c1nc(-c2ccc(C(=O)Nc3ccccn3)cc2)c2c(N)nccn12 | MAP2K6 (Homo sapiens, UniProt P52564) | kinase activity, inhibitor, HotSpot radiometric | 100 nM, with: ATP 10 µM | – | 91.7 ± 4.1%
CNc1ncc2c(/C=C/C(=O)N3CCC(OC)CC3)nn(Cc3cccc(C(F)(F)F)c3)c2n1 | SRPK3 (Homo sapiens, UniProt Q9UPE1) | kinase activity, inhibitor | 1 µM | reference: untreated control | 114%
[H]/N=C(\N/C(=N/[H])NCCCCCCNC(=N)NC(=N)Nc1ccc(Cl)cc1)Nc1ccc(Cl)cc1 | DCLRE1A | exonuclease activity, inhibitor, fluorescence HTS | 10 µM, 80 min, with: 8 nM 5P-FQ substrate | – | 53.1%
NC/C(=C\F)COc1cccc(Cn2c(=S)[nH]c(=O)c3[nH]cnc32)c1 | Peroxidasin homolog (PXDN, Homo sapiens, UniProt Q92626) | Amplex UltraRed | 40 µM | reference: control | 13.7%
C=CC(=O)N1CCC[C@@H](n2nc(-c3ccc(Oc4ccccc4)cc3)c3c(N)ncnc32)C1 | EPHB1 (Homo sapiens, UniProt P54762) | – | 0.1 µM | – | 134%
COc1cc(-c2cncc3c2CN(C)Cc2cc(N4CCNCC4)ccc2-3)cc(OC)c1OC | ARAF (Homo sapiens, UniProt P10398) | kinase activity | 1 µM, human enzyme, with: ATP 10 µM | reference: DMSO control | 105%
CCCCC/C=C/C=C/C(=O)NCC(C)C | DCLRE1A | exonuclease activity, inhibitor, fluorescence HTS | 10 µM, 80 min, with: 8 nM 5P-FQ substrate | reference: high and low controls | 42.8%
COc1cc(F)ccc1-c1ncnc(Nc2cccc(C[S@](C)(=N)=O)c2)n1 | CSNK2A2 (Homo sapiens, UniProt P19784) | kinase activity | 10 µM, with: 10 µM ATP | – | 83%
COc1ccc(F)cc1C(=O)NCc1ccc(-c2nn([C@@H](C)C(F)(F)F)c(N)c2C(N)=O)cc1 | CAMK1 (Homo sapiens, UniProt Q14012) | kinase activity, inhibitor, HotSpot radiometric | 100 nM, with: ATP 10 µM | – | 92.9 ± 0.9%
COc1cc(Nc2ncc3c(n2)-c2ccc(Cl)cc2C(c2c(F)cccc2OC)=NC3)ccc1C(=O)O | DYRK3 | kinase activity | 1 µM | – | 99%
Cc1cccc2c3c(ccc12)C1=C(C(=O)C3=O)[C@@H](C)CO1 | DCLRE1A | exonuclease activity, inhibitor, fluorescence HTS | 10 µM, 80 min, with: 8 nM 5P-FQ substrate | reference: high and low controls | 27%
Cc1cc(Nc2cc(N3CCN(C)CC3)nc(Sc3ccc(NC(=O)C4CC4)cc3)n2)[nH]n1 | Abl2 (Mus musculus, UniProt Q4JIM5) | kinase activity, KinaseProfiler | 0.03 µM, species mouse | reference: control | 23%
O=C1OC2(c3ccc(O)cc3Oc3cc(O)ccc32)c2ccccc21 | DCLRE1A | exonuclease activity, inhibitor, fluorescence HTS | 10 µM, 80 min, with: 8 nM 5P-FQ substrate | – | 14.2%
O=C(O)c1ccc(Nc2ncc3c(n2)-c2ccc(Cl)cc2C(c2c(F)cccc2F)=NC3)cc1 | MKK6(h) | kinase activity | 1 µM | – | 94%
O=C(O[C@@H]1Cc2c(O)cc(O)cc2O[C@@H]1c1cc(O)c(=O)c2c(O)c(O)cc([C@H]3Oc4cc(O)cc(O)c4C[C@H]3OC(=O)c3cc(O)c(O)c(O)c3)c2c1)c1cc(O)c(O)c(O)c1 | DCLRE1A | – | 10 µM | – | 27.2%
O=C1NC(=O)/C(=C/c2ccc(-c3ccc(F)cc3O)o2)S1 | MYLK (Homo sapiens, UniProt Q15746) | enzyme activity | 10 µM | – | 37%

For quick reference, copied from above:
Structure (SMILES) | target | assay | setting | how to read | remaining activity
COc1cc(F)ccc1-c1ncnc(Nc2cccc(C[S@](C)(=N)=O)c2)n1 | CSNK2A2 (Homo sapiens, UniProt P19784) | kinase activity | 10 µM, with: 10 µM ATP | – | 83%
